Measured values gathered from unrelated publications.
Protocols differ between the studies behind these lines. Values joined by “and” are separate records of one study, mostly repeats; a detail may differ. Numbers after ± are the reported error.
CACNA1I: Voltage-dependent T-type calcium channel subunit alpha-1I (CACNA1I, Homo sapiens, UniProt Q9P0X4)
EPHX2: Bifunctional epoxide hydrolase 2 (EPHX2, Homo sapiens, UniProt P34913)
MGLL: Monoglyceride lipase (MGLL, Homo sapiens, UniProt Q99685)
Proteasome component C5/PSMB5: Proteasome component C5/PSMB5 (Homo sapiens, UniProt P20618+P28074)
MAOB: Amine oxidase [flavin-containing] B (MAOB, Homo sapiens, UniProt P27338)
Tpo: Thyroid peroxidase (Tpo, Rattus norvegicus, UniProt P14650)

| Structure (SMILES) | target | test | test system | setting | IC50 |
| --- | --- | --- | --- | --- | --- |
| CC(=O)OC[C@H]1O[C@@H]([S-])[C@H](OC(C)=O)[C@@H](OC(C)=O)[C@@H]1OC(C)=O.CCP(CC)CC.[Au+] | trxB (Escherichia coli, UniProt P0A9P4) | enzyme activity, inhibitor, absorbance | – | with preincubation | 210 nM |
| Cn1ncc(Nc2ccc3c(c2)CCN(CCCCCNC(=O)COc2cccc4c2C(=O)N(C2CCC(=O)NC2=O)C4=O)C3)c(Cl)c1=O (stereo not shown) | Bromodomain-containing protein 9, bromodomain (BRD9, Homo sapiens, UniProt Q9H8M2) | binding, AlphaScreen | – | bromodomain, with: H4 acetylated peptide, 100 nM | 21 nM |
| O=[N+]([O-])c1ccc(Oc2ccc(S(=O)(=O)NC3CCCCC3)cc2)cc1 | NADH dehydrogenase complex I, ubiquinone-binding site IQ (Rattus norvegicus, UniProt A6K8N6+P03889+Q641Y2) | superoxide/H2O2 production | isolated mitochondria | complex I site IQ, with: succinate 5 mM | 4500 nM |
| COC(=O)C1=C(C)NC(C)=C([N+](=O)[O-])[C@@H]1c1ccccc1C(F)(F)F | CACNA1I | inhibitor, FLIPR calcium | HEK293 with GCaMP6s-CAAX, Kir2.3 | with: KCl at EC90 | 16000 nM |
| Nc1ccn([C@@H]2O[C@H](COP(=O)(O)OP(=O)(O)OP(=O)(O)O)[C@@H](O)[C@H]2O)c(=O)n1 | inositol pyrophosphate kinase Vip1, CTP-swap V2 (Trichoderma virens, UniProt Z9USF9BXN2) | 5'-deoxyadenosine formation, inhibitor, LC-MS | – | pH 7.5, with: 1 mM deuterated UTP, 1 mM SAM | 16000 ± 6500 nM |
| C#C[C@]1(OC(C)=O)CC[C@H]2[C@@H]3CCC4=CC(=NO)CC[C@@H]4[C@H]3CC[C@@]21CC (mixture of isomers) | Organic solute transporter subunit alpha, with OSTβ (SLC51A, Homo sapiens, UniProt Q86UW1) | DHEAS uptake, inhibitor | Flp-In 293 overexpressing OSTα/β | 30 s, with: DHEAS 4 µM | > 200000 nM |
| CC(C)C[C@H](NC(=O)[C@H](Cc1ccc2ccccc2c1)NC(=O)[C@H](CCC(=O)O)NC(=O)c1ccnc(C(F)(F)F)n1)C(=O)NC1CC1c1ccccc1 (stereo partly shown) | APC (Homo sapiens, UniProt P25054) | ligand displacement, FP | – | – | 3050 nM |
| O=C(Nc1ccn(Cc2ccc(O)cc2C(F)(F)F)n1)c1c(F)cccc1F | Calcium release-activated calcium channel protein 1, with STIM1 (ORAI1, Homo sapiens, UniProt Q96D31) | STIM1-mediated current, inhibitor, whole-cell patch clamp | HEK293 cells | estimated from single concentrations | 4100 nM |
| O=C(CCCCCCNC(=O)[C@H]1CCCN(C(=O)c2ccc(NC(=O)NC(c3ccccc3)c3ccccc3)c(F)c2)C1)NO | EPHX2 | enzyme activity, inhibitor, fluorescence | – | – | 10.2 nM |
| CC1(C)c2cc3cc(-c4ccc(O)cc4O)c(=O)oc3cc2OC1CO (stereo not shown) | RELA (Homo sapiens, UniProt Q04206) | NF-κB activity, inhibitor | – | – | 700 nM |
| Cc1ccc(NC(=O)Nc2cccc(-c3nnc(C4CCCCC4)o3)c2)cc1 | α-amylase | enzyme activity, inhibitor | – | – | 5290 nM |
| N#Cc1ccc2c(ccn2CC2CCN(C(=O)OC(C(F)(F)F)C(F)(F)F)CC2)c1 | MGLL | enzyme activity, inhibitor | – | – | 410 nM |
| O=C(ON1C(=O)c2ccccc2C1=O)N1CC(N2CCN(C(=O)c3nccs3)CC2)C1 | Monoglyceride lipase (Rattus norvegicus, UniProt Q8R431) | enzyme activity, inhibitor | – | with preincubation | > 1000 nM |
| C[C@]12C[C@@H]3C[C@](C)(C1)C[C@@](NC(=O)Nc1ccc(CN4CCC[C@H](C(=O)NCCCCCCC(=O)NO)C4)cc1F)(C3)C2 | EPHX2 | enzyme activity, inhibitor, fluorescence | – | – | 0.2 nM |
| COC(=O)C1=C(C)NC(C)=C(C(=O)O[C@@H]2CCCN(Cc3ccccc3)C2)[C@@H]1c1cccc([N+](=O)[O-])c1 (racemic) | CACNA1I | inhibitor, FLIPR calcium | HEK293 with GCaMP6s-CAAX, Kir2.3 | with: KCl at EC90 | 3400 nM |
| Cc1ccc(S(=O)(=O)N[C@H](CC(=O)N[C@@H](C)C(=O)NCc2cccc3ccccc23)CC(=O)NC(C)(C)C)cc1 | Proteasome component C5/PSMB5 | chymotrypsin-like activity, inhibitor | – | with: suc-LLVY-AMC | 35300 nM |
| O=C1/C(=C/c2ccccc2)C(NC2CCCCC2)c2cc(Br)ccc21 (stereo not shown) | Dual specificity protein phosphatase 6 (Homo sapiens, UniProt Q16828) | ERK phosphorylation restoration, inhibitor, chemical complementation | HeLa transfected with c-Myc-DUSP6 | 15 min, with: TPA | 55900 ± 8600 nM |
| COC(=O)C1=C(C)NC(C)=C([N+](=O)[O-])[C@H]1c1ccccc1C(F)(F)F | Voltage-dependent P/Q-type calcium channel subunit alpha-1A, with β4/α2δ1 (Homo sapiens, UniProt O00555) | calcium current, blocker, automated patch clamp | – | tonic block, holding -90 mV | 24800 ± 7300 nM |
| O=C(NNC(=O)c1ccc(CNS(=O)(=O)c2ccc(F)c(Cl)c2)cc1)c1ccccc1 | Glutamate NMDA receptor; Grin1/Grin2a (Grin1/Grin2a, Rattus norvegicus, UniProt P35439+Q00959, V783T) | ion current, two-electrode voltage clamp | – | oocytes | 810 nM |
| O=C1CCOc2cc(OCc3ccc(C(F)(F)F)cc3)ccc21 | MAOB | enzyme activity, inhibitor, fluorescence | – | – | 3.8 nM |

| Structure (SMILES) | target | test | test system | setting | IC50 |
| --- | --- | --- | --- | --- | --- |
| Cc1ccc([N+](=O)[O-])cc1S(=O)(=O)N(C)C | PDE7B (Homo sapiens, UniProt Q9NP56) | enzyme activity, inhibitor, radiometric | – | – | 12100 nM |
| CC(C)(C)OC(=O)N[C@@H](Cc1ccc(OCc2ccccc2)cc1)C(=O)O | Bifunctional epoxide hydrolase 2, N-terminal phosphatase domain (EPHX2, Homo sapiens, UniProt P34913) | N-terminal phosphatase activity | human | 10 min preincubation, with: AttoPhos 15 µM | 1500 nM |
| NS(=O)(=O)c1ccc(N2N=C(C(F)(F)F)C[C@@H]2c2ccc(F)cc2F)cc1 | Prostaglandin G/H synthase 1 (Canis lupus familiaris, UniProt Q8HZR1) | TXB2 formation, inhibitor | clotting dog whole blood | 1 h, 37 °C | > 500000 nM |
| CC[C@H](c1ccc(O)cc1)[C@@H](CC)c1ccc(O)cc1 | Tpo | tyrosine iodination, LC-MS/MS | rat thyroid microsomes | with: KI 300 µM, H2O2 40 µM | 5380 nM |
| COc1cc(CCC(=O)CC(=O)CCc2ccc(O)c(OC)c2)ccc1O | HSD3B2 (Homo sapiens, UniProt P26439) | enzyme activity, inhibitor | KGN cell homogenate | lower bound from 100 µM screen, with: pregnenolone | ≥ 100000 nM |
| Cc1cc(C(=O)N2CCC[C@H](C(=O)NCCCCCCC(=O)NO)C2)ccc1NC(=O)N[C@@]12C[C@@H]3C[C@@](C)(C[C@@](C)(C3)C1)C2 | EPHX2 | enzyme activity, inhibitor, fluorescence | – | – | 0.3 nM |
| CCOC(=O)/C(O)=C/C(=O)c1cn(Cc2ccc(F)cc2)c2ccc(F)cc2c1=O | Gag-Pol polyprotein, integrase (gag-pol, Human immunodeficiency virus 1, UniProt P12497) | 3'-processing, inhibitor, gel-based | – | with: Mg2+ | > 333000 nM |
| CC(C)NCc1ccc(C[C@@H]2NC(=O)[C@@H](N(C)C(=O)c3ccc4ccccc4c3)NC(=O)[C@H](Cc3ccccc3)NC(=O)[C@@H](N)CSSC[C@@H](C(N)=O)NC(=O)[C@H](Cc3ccc(O)cc3)NC2=O)cc1 | SSTR1 (Homo sapiens, UniProt P30872) | ligand displacement, radioligand | – | cell membranes | 7.3 nM and 6 nM |
| O=C(NO)c1ccc(Cn2cnc3ccccc32)cc1 | HDAC6 (Homo sapiens, UniProt Q9UBN7) | enzyme activity, inhibitor | – | – | 29 nM |
| Cc1ccc(CNC(=O)[C@H](CCc2ccccc2)NC(=O)[C@H](CCc2ccccc2)NC(=O)[C@H](CCc2ccccc2)NC(=O)c2cnc(C)cn2)cc1 | Proteasome component C5/PSMB5 | inhibitor | – | – | 16 nM |
| COc1cc(C(Nc2ccccn2)c2cc3c(cc2O)OCO3)cc(OC)c1OC (stereo not shown) | JAK1 (Homo sapiens, UniProt P23458) | enzyme activity, inhibitor | – | – | > 400000 nM |
| O=C(OC(C(F)(F)F)C(F)(F)F)N1CCC(CCn2ccc3c(F)cccc32)CC1 | MGLL | enzyme activity, inhibitor | – | – | 470 nM |
| O=C(Nc1ccc(F)cc1)Nc1cccc(-c2nnc(C3CCCCC3)o2)c1 | α-amylase | enzyme activity, inhibitor | – | – | 5090 nM |
| COc1cc(/C=C/C(=O)O)ccc1O | firefly luciferase | ADP-Glo ADP processing, luminescence counter-screen | cell-free, no kinase | up to 77 µM, with: ADP 1.25 µM, ATP 11.25 µM | no inhibition |
| CCOc1ccc2cc(-c3cn(CC4CC4)c4ncnc(N)c34)ccc2c1 | CDPK1 (Plasmodium falciparum, UniProt P62344) | enzyme activity, inhibitor | – | – | > 2000 nM |
| O=S(=O)(c1cc(C(=S)Nc2cc(F)c(F)c(F)c2)c(Cl)cc1Cl)N1CCOCC1 | LPAR2 (Homo sapiens, UniProt Q9HBW0) | Ca2+ mobilization, antagonist | MEF | with: LPA at EC50 | > 100000 nM |
| O=C(Nc1ccc([N+](=O)[O-])cc1[N+](=O)[O-])c1ccccc1 | MAOB | enzyme activity, inhibitor | – | – | > 1000 nM |
| O=C(O[C@@H]1Cc2c(O)cc(O)cc2O[C@@H]1c1cc(O)c(O)c(O)c1)c1cc(O)c(O)c(O)c1 | Tpo | tyrosine iodination, LC-MS/MS | rat thyroid microsomes | with: KI 300 µM, H2O2 40 µM | 270 nM |
| C[C@@H](CNCc1ccccc1)N1C[C@H](CCCNC(=N)N)N(CCc2cccc(F)c2)C1=S | GABAA receptor agonist site | binding, radioligand displacement | – | – | > 1000 nM |
| O=c1c(O)c(-c2ccc(O)c(O)c2)oc2cc(O)cc(O)c12 | firefly luciferase | luminescence signal, luminescence counter-screen | cell-free, after ADP processing | up to 77 µM, with: ADP 1.25 µM, ATP 11.25 µM | no inhibition |
